Measurements collected from several papers.
Parts stem from different laboratories: compare values within a part only. Positions count from the first letter of the parent shown.

Sample 1 — technique: DHFR PCA, dose-response; matrix: yeast; notes: Hill fit, mean, not affinity; with: (+)-ABA, dose series; reading: lower = more sensitive
Target: ABI1, truncated, D143A, DHFR fusion (Arabidopsis thaliana, UniProt P49597)
Starting sequence: PYL1, truncated, DHFR fusion (Arabidopsis thaliana, UniProt Q8VZS8); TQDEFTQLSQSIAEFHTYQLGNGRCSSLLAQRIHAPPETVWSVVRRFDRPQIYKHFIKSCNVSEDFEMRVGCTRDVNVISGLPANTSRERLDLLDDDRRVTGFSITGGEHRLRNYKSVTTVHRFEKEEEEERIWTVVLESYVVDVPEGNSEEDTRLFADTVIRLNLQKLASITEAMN
Variant	ABA EC50 [µM]
V70W	194
Q7E	2.34
H55W	8.41
A158G	52.9
F47Y	77
S117Q	68.2
R46A	3.42
L29C	10.1
S9A	1.91
T86R	6.91
D96K	493
V142T	1.54
R49L	8.85
T154M	17.1
R45Q	227
R98F	59.3
V121C	18.7
V44M	52.3
E67Y	5.01
S42A	3.27
V136H	84.6
E109L	21
F124S	6.7
T86D	3.92

Sample 2 — technique: RNA Bind-n-Seq; molecule type: RNA; matrix: in vitro; concentration: 365 nM; reference: no-protein control; reading: higher = stronger binding
Target: RNA binding protein fox-1 homolog 2, RRM domain, GST-SBP tag (RBFOX2, Homo sapiens, UniProt O43251-10, residues 100-194)
Notes: natural RNA segment, single round, ends assumed
All sequences stand within: GGGAGUUCUACAGUCCGACGAUC … UGGAAUUCUCGGGUGCCAA
Residues (chain): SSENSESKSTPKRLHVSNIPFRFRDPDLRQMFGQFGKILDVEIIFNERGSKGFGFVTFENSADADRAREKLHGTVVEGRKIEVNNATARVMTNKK
Oligonucleotide	RBNS enrichment (R)
UGUGGGCCAGUGUCGUGUGGCCUGGAGACCAUCAGGAGUCUGCACACCCACCACUUACUUGUGCCAGAAACUCUGGAGGCACCCACACCUCCCACCUGUUCAGGUUGUGG	0.316
UUGGAGAGCAAGGAAUGUGGACUUGUAUGGCUUUGAACCAAGAGAGGGUUAUGAGCCUACUGGAUUGAGGUUAAAAUCCAAGAACCAACAUUUAGAGCUUUGUGCUUUUC	0.63
UUUCCUUUAUGUGAAUUUUUAAGCUGCGAAUCUGAUGGCCUUAAUUUCCUUUUUGACACUGAAAGUUUUGUAAAAGAAAUCCUAUCCAUACACGUUGUAAGAUGUGAAUU	0.366
GAGGAUGUGUUUUGCACGUCUUGCUAUUUGAGCAUGCACAGCUGCUUGUCCUGCUCUCUUCAGGAGGCCCUGGUGUCAGGCAGGUUUGCCAGUGAAGACUUCUUGGGUAG	0.655
GCUGUCAGUUUUGAAUUCCUCCAUCUGAACUGCACUGAAGAACUAGACUAAAGCACCGGGCGGUCCAGCUGUAGCUGUUCUUCAGUGAGGGUGAGGAUCAGUGUAUUAGA	0.985
CUUUUAUGAUCAGGGUGAAAUGUACUUCCUGAUGUAAUGAACCUAAUUUGAUUUCCAUUUUAAGGUGGUGUCUGUGCAGCUGGUGUCCCCGAUUCUGGCUGUCCUAUGUC	0.409
UCAUACACCCUUUUGCUUACCUAAUUUCAAGAACAAAACAAACAACAAAAAAAUGCUACUCCUAGUUCAGAUGUUGUGCCCUUCAUUUCUAAAGCCGAUGUUUUGCCCUC	0.628
AUAUAGUCAACUCUUGAUUAUCCACGUGUGGAUUAUCCACCAUGCCAGGAAGACCCAUAACUGGUUUUAACACUAACUAGAGGGAAUGACUUCUUUGCAUAGUGAGUGAC	0.231
UUUAAGGCAGUUCCGUUAAGGGUUUUUGUUUUUAAACUUUUUUUUGCCAUCCAUCCUGUGCAAUAUGCCGUGUAGAAUAUUUGUCUUAAAAUUCAAGGCCACAAAAACAA	0.443
AAAUUGAGCGAGAUCUCAGGCUGAGCAAAAUGAAACCUUGAUGUUACGGGCUAAAUCAAGAGCAGCUUAAUCCUGUUUACAAUGUGAGCUUUUUGUGCGUCUGUGAAAUG	0.718
UCUUAGGUUGGAGAUGACAGAAAUAUGAUUGAUUUGAAGUGGAAAAAGAAAUUCUGUUAAUGUUAAUUAAAGUAAAAUUAUUCCCUGAAUUGUUUGAUAUUGUCACCUAG	0.721
CCGGGCCCGCUCAGGAUGCCCUGGCCCAGGCUUGGGGCUGCUGGGGUUGGAAUGUGGAACUGCAGCCUCAGCCCAUCUGGCAGAGUCCCAGGAACUCGGAGACUGGCACA	0.614

Sample 3 — target: CREB3L4, bZIP domain (human); technique: DHFR protein complementation; matrix: yeast; reference: wild-type JUN-FOS pair; reading: higher = stronger binding
Notes: single substitutions, most at no-binding floor
Starting sequence: JUN, bZIP domain (human); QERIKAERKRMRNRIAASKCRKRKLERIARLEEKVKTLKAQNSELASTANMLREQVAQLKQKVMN; partner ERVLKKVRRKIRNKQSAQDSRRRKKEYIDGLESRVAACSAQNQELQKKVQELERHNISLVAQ
Variant	binding fitness [natural log]
K36E	-1.31
A40F	-1.47
V56P	-1.5
A46E	-1.24
T48I	-1.51
A29L	-1.54
T48D	-1.21
K39V	-1.27
V35N	-1.48
N42S	-1.52
A40G	-1.43
M51T	-1.52
K39E	-1.58
A29P	-1.4
R30Y	-1.49
L45E	-1.56
K39Y	-1.48
L31M	-1.57
R30G	-1.37
A57E	-1.53
Q55S	-1.45
A49H	-1.44
A40E	-1.5
E44W	-1.48
L38V	-1.52

Sample 4 — technique: protein binding microarray; molecule type: double-stranded DNA, one strand shown; matrix: in vitro; concentration: not given; reference: not given; reading: higher = stronger binding
Target: Histone acetyltransferase KAT6A, winged helix 1, GST fusion (KAT6A, Homo sapiens, UniProt Q92794, residues 1-85)
Notes: 8-mer, flanks averaged, mean of 2 arrays, mostly near background
Residues (chain): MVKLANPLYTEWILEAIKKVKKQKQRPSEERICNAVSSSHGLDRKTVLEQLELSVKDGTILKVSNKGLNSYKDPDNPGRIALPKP
Oligonucleotide	E-score
AACGACTC	-0.202
GCTCGGAA	0.0776
ACTTAAAA	-0.114
TACTCTAA	0.0178
GCCGCCAC	0.4
GTACCCAC	0.134
ACCTGCCT	-0.163
GTACAAAC	-0.151
ACCCTTTA	0.0831
AAATTGTC	-0.122
ATGCTCGC	-0.0396
AATCCACG	0.0426
GTGCAAAA	-0.199
CGACTTTA	-0.00993
GACGCTTA	0.068
AGTCAGAG	-0.0684
CTGACAAC	-0.0639
AAGGTCCA	-0.172
GTAACCAC	0.0724
AACCTTTC	-0.163

Sample 5 — target: CCNB3, cyclin fold, Cln2 fusion (human); technique: yeast growth competition, sequencing; matrix: yeast; notes: weak parent motif; reference: not given; reading: higher = stronger binding
Starting sequence: MICAL3 docking peptide (human); LQLRRQLSFSEDS; partner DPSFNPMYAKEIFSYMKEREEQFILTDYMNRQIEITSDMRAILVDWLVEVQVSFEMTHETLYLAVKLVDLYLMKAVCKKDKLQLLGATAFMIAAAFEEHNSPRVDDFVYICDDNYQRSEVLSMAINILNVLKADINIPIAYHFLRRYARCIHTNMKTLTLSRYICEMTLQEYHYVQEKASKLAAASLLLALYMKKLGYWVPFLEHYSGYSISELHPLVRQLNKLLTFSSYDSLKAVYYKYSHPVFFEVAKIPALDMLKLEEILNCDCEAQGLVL
Variant	normalised enrichment score
LQLRGQLSFSEDS [R5G]	0.212
LQLRRQLSFSEVS [D12V]	0.398
LQLRRQLSFSLDS [E11L]	0.569
LQLRRQLSVSEDS [F9V]	-0.183
LQLRSQLSFSEDS [R5S]	-0.127
LQLRRQLSASEDS [F9A]	-0.173
LQLRRQHSFSEDS [L7H]	-0.00877
LQLRRQLSHSEDS [F9H]	-0.154
LQLRDQLSFSEDS [R5D]	0.0434
LQLRFQLSFSEDS [R5F]	-0.00118
LQLRRQLSPSEDS [F9P]	-0.125
LQLRRQLKFSEDS [S8K]	0.485
LQSRRQLSFSEDS [L3S]	0.207
LQLRRQLHFSEDS [S8H]	0.554
LQLRRQLSFSMDS [E11M]	-0.0763
LQLRRQDSFSEDS [L7D]	-0.42
LQKRRQLSFSEDS [L3K]	-0.464
LQLRRQLSFCEDS [S10C]	0.181
LQLRRQLSFSEKS [D12K]	0.366
LQLRRQGSFSEDS [L7G]	0.0406

Sample 6 — technique: Sort-seq; item: YFP reporter; matrix: E. coli; notes: PhoQ-PhoP variant library; with: 10 µM Mg2+; reference: high Mg2+ state; reading: higher = stronger signaling
Substance: PhoQ, residues 284 288 289 292 302 303 GNNTDL
target	fold induction
PhoP, residues 12 14 15 18 19 TQALL (Escherichia coli, UniProt P23836)	1.47
PhoP, residues 12 14 15 18 19 QYFSL (Escherichia coli, UniProt P23836)	2.01
PhoP, residues 12 14 15 18 19 NYFRM (Escherichia coli, UniProt P23836)	2.16

Excerpt of the above (sample 3):
Variant	binding fitness [natural log]
R30G	-1.37
A40E	-1.5
E44W	-1.48
L38V	-1.52
T48D	-1.21
K39E	-1.58
K39V	-1.27
M51T	-1.52
A49H	-1.44
A46E	-1.24
L31M	-1.57
A29L	-1.54
K39Y	-1.48
A29P	-1.4
V56P	-1.5
